Results gathered from unrelated publications.
Each line is one published result; not all experiments were run side by side. Values joined by “and” are separate records of one study, mostly repeats; a detail may differ. ± gives the spread as reported. Converted amounts (≈) assume the structure as drawn.

| Structure (SMILES) | cell line | test | test system | conditions | scale | measurement | value |
| --- | --- | --- | --- | --- | --- | --- | --- |
| c1ccc([C@@H]2C[C@H]2NC2CCNCC2)cc1 | OCI-Ly1 | – | – | 0.5 µM, 120 h | – | viability | 166% |
| COc1cc(C(=O)c2c[nH]c3cc(-c4cccc(O)c4)ccc23)cc(OC)c1OC | MDA-MB-231 | scratch wound healing | – | 50 to 200 nM | – | cell migration | inhibited |
| CN(C)c1cc(NC(=O)CNC(C)(C)C)c(O)c2c1C[C@H]1C[C@H]3[C@H](N(C)C)C(O)=C(C(N)=O)C(=O)[C@@]3(O)C(O)=C1C2=O | Escherichia coli DH5α expressing KPC-2 | bacterial growth | – | – | – | MIC | 0.125 µg/mL (≈ 0.213 µM) |
| CCOC(=O)C1=C(N)N(c2ccc(C(=O)OCC)cc2)C(O)=C(C#N)C12C(=O)Nc1ccccc12 (stereo not shown) | Caco-2 | qRT-PCR, measured: Bcl-2 | – | IC50 | reference: untreated | mRNA fold change | 0.275 |
| COc1ccc([C@H]2c3[nH]c4ccc(Cl)cc4c3CCN2C(=O)Oc2ccc(Cl)cc2)cc1 | human dermal fibroblasts with PBMC | cytokine secretion, measured: sIL-10 | – | 0.01 µM, 48 h | – | inhibition | 73% |
| Nc1ncnc2c1ncn2[C@@H]1O[C@@H]2COP(=O)(O)O[C@H]3[C@@H](O)[C@H](n4cnc5c(=O)[nH]cnc54)O[C@@H]3COP(=O)(O)O[C@H]2[C@H]1O | HFF-1 | RNA sequencing, measured: Adherens junctions interactions | – | downregulated pathway | reference: Zika virus alone | pathway fold enrichment | 11.1 |
| Cn1nccc1Nc1nccc(-c2cc3c(s2)C(C)(C)N(CCN2CCOCC2)C3=O)n1 | HCT116 | IncuCyte | – | concentration not given, 32 (unit not given) | – | PI-positive cells | 14.3 count and 8.75 count and 13.3 count |
| Cc1cc(C(C)(C)c2ccc(O)c(C)c2)ccc1O | HepG2 spheroids | Hoechst flow cytometry | – | 0.01 µM, 96 h | – | G1 phase cells | 68.5 ± 15.7% |
| CN1CCN(C2(CNC3CCN(c4cccc(-c5cc6cc(F)ccc6[nH]5)c4)CC3)CCC2)CC1 | HOP-62 | – | – | – | – | CC50 | 7.31 µM |
| COc1ccc2c(c1)[nH]c1c(C)nccc12 | DU-145 | bisulfite pyrosequencing, measured: RASSF1A promoter CpG site 24 | – | 10 µM, 16 h | – | DNA methylation | 100% |
| N.N.[Cl][Pt][Cl] | SGC-7901 resistant to compound | viability, CCK-8 | – | with glutamine | – | IC50 | 43.2 µM |
| COc1c(CCC[P+](c2ccccc2)(c2ccccc2)c2ccccc2)cc2c(c1OC)OCO2.[I-] | UACC-257 | SRB | – | – | – | TGI | -5.36 log M |
| Cn1cc(-c2ccc(-c3cncc(Cl)c3N3CCC4(CCNC4=O)CC3)cc2)cn1 | COLO 205 | microarray, measured: BIRC5 | – | concentration not given, 2 h, gene set Survivin | reference: untreated cells | fold change in expression | -2.41 |
| COc1cc(CCC[P+](c2ccccc2)(c2ccccc2)c2ccccc2)c(OC)c2c1OCO2.[I-] | UACC-257 | SRB | – | – | – | TGI | -5.19 log M |
| COc1cc(C[C@@H](C)[C@@H](C)Cc2cc(O)c(OC)c(OC)c2)cc(O)c1OC | THP-1 cells PMA-differentiated | qRT-PCR | – | 10 µM, 24 h, with: LPS 1 µg/mL | reference: LPS alone | CCL2 mRNA level | decreased |
| Cn1cncc1C1=CN(c2ncnc3[nH]cnc23)CCS1 | HOP-62 | – | – | lung cancer | – | CC50 | > 200 µM |
| C/C=C(/C)C(=O)O[C@H]1C(C)=C2[C@H]([C@@H]1OC(=O)CCCCCCC)[C@@](C)(OC(C)=O)C[C@H](OC(=O)CCC)[C@@]1(O)[C@H]2OC(=O)[C@@]1(C)O | HEK293T | RNA-seq, measured: HSP90AA1 mRNA | – | 10 µM, 6 h | reference: vehicle | log2 fold change | -0.414 |
| CC[C@H](C)[C@H](NC(=O)CNC(=O)[C@@H](N)CCCCN)C(=O)N[C@@H](CC(C)C)C(=O)N[C@@H](CCCCN)C(=O)N[C@@H](CCCNC(=N)N)C(=O)N[C@@H](CCC(=O)O)C(=O)N[C@@H](CCCCN)C(=O)N[C@@H](CCCNC(=N)N)C(=O)N[C@@H](CC(C)C)C(=O)N[C@@H](CCCNC(=N)N)C(=O)N[C@@H](CCCNC(=N)N)C(=O)N[C@@H](CCCCN)C(=O)N[C@@H](CC(N)=O)C(=O)N[C@H](C(=O)N[C@@H](Cc1c[nH]cn1)C(=O)N[C@@H](Cc1c[nH]c2ccccc12)C(=O)N1CCC[C@H]1C(=O)N[C@@H](CCC(=O)O)C(=O)N[C@@H](CCC(=O)O)C(=O)NCC(=O)N[C@@H](CCCCN)C(=O)N[C@@H](CC(C)C)C(=O)N[C@@H](CCCNC(=N)N)C(=O)N[C@@H](CCC(=O)O)C(=O)N[C@@H](Cc1ccccc1)C(=O)N[C@@H](Cc1ccccc1)C(=O)N[C@@H](Cc1ccccc1)C(=O)N[C@@H](Cc1ccccc1)C(=O)N[C@@H](CCC(=O)O)C(=O)N[C@@H](CC(C)C)C(=O)N[C@@H](CC(=O)O)C(=O)N[C@@H](CCC(=O)O)C(=O)N[C@@H](C)C(=O)N[C@@H](CCC(=O)O)C(=O)N[C@@H](CCCNC(=N)N)C(=O)N[C@H](C(=O)N[C@@H](CC(N)=O)C(=O)N[C@H](C(=O)O)C(C)C)C(C)C)C(C)C | HeLa (mitotic) | protein phosphorylation, TMT phosphoproteomics, measured: Ki-67 phosphosite | cell lysate | concentration not given, 15 min | reference: treated over control | log2 fold change | 2.77 |
| CC(C)N1CCC(NC2CCN(c3cccc(-c4cc5cc(F)ccc5[nH]4)c3)CC2)CC1 | SK-MEL-5 | – | – | – | – | GI50 | 1.56 µM |
